Published values pooled from the literature.
Compare with care: the assays were run in different laboratories. “And” joins repeats or separate records; there may be more than shown.
Target: Focal adhesion kinase 1 (PTK2, Homo sapiens, UniProt Q05397)

With C=CC(=O)N1Cc2nc(-c3cc(-c4cc(Cl)cnc4Cl)c(F)cc3F)n(-c3ccncn3)c2C1 the inhibition was 10.4% (cell-free assay, inhibitor; 1 µM).
For N[C@H]1CC[C@H](Nc2nccc(-c3cccnc3Oc3ccc(NC(=O)NC4CC4)c4ccccc34)n2)CC1, “log2 LFQ intensity” read 30.8 and 30.7 and 31 (kinobead competition pulldown; HEK293/HCT116 lysate mixture; 10 µM, 1 h, 4 °C; lower = stronger competition).
With CN1CCN(Cc2ccc(NC(=O)c3cccc(C#Cc4cnc(N)c5ncccc45)c3)cc2C(F)(F)F)CC1 the remaining binding was 97% (cell-free assay, competition with immobilised ligand; 50 nM).
CC(C)=CC1OC(C)(C)C2C=C3C(=O)C(Cl)=CC(O)C3C3C(O)C4OC4C(=O)C132 (centres unmarked) has a remaining binding of 92% (cell-free assay, competition with immobilised ligand; 10 µM).
C=CC(=O)Nc1cccc(-c2cnc3[nH]cc(C(=O)NC(C)(C)C)c3n2)c1 has an inhibition of 2% (enzyme activity, inhibitor; 0.1 µM).
With NC(=O)C[C@H]1CCc2sc3ncnc(O[C@H]4CC[C@H](N5CCOCC5)CC4)c3c21 the inhibition was 7% (enzyme activity, inhibitor; 10 µM).
With COc1c(OCCCN2CCOCC2)ccc2c1N=C(NC(=O)c1cnc(N)nc1)N1CCN=C21 the remaining activity was 82% (kinase activity, inhibitor; 1 µM; baseline: untreated control).
With CN1CCN(Cc2ccc(-c3ccc(CO[C@H]4CCC[C@@H]4NC(=O)c4cc(-c5cnn(C)c5)cnc4N)cc3)cc2)CC1 the inhibition was 3% (enzyme activity, inhibitor; 0.1 µM).
For COc1ccc(NC(=O)Nc2ccc3c(c2)C(=O)N(C(C)CO)CC(C)C(CN(C)Cc2ccc4c(c2)OCO4)O3)cc1 (centres unmarked), the remaining binding was 100% (binding, competition with immobilised ligand; 10 µM).
COC(=O)[C@@]1(C)C=C(C(=O)Nc2cccc(C(=O)Nc3ccc(Nc4nccc(-c5cccnc5)n4)c(C)c3)c2)C(=O)CC1 has a remaining activity of 65% (enzyme activity, inhibitor, radiometric; 1 µM).
Nc1ncc2c(n1)-c1c([nH]c3ccc(C4=CCOCC4)cc13)CCC2 gave a remaining binding of 100% (binding, competition with immobilised ligand; 1 µM).
CN1CC[C@@H](COc2cnc(C#N)cc2-c2ccn3nc(NC(=O)C4CC4)cc3c2)C1 has an inhibition of -3% (enzyme activity, inhibitor; 1 µM).
COc1ccc(C(=O)/C=C/c2ccccc2-c2c[nH]c3ccc(C#N)cc23)c(O)c1 has an inhibition of 2% (enzyme activity, inhibitor; 20 µM).
Cc1cnc2nc1Nc1cccc(c1)COC/C=C/COCc1cc(ccc1OCCN1CCOCC1)N2 has a remaining binding of 91% (binding, competition with immobilised ligand; 0.1 µM).
Under “activity vs control”, O=C(Cc1ccc(OCc2ccccc2)cc1)NC1(C(=O)O)CCN(C(=O)c2ccc(-c3cccc(Cl)c3)cc2)CC1 is recorded as 98% (enzyme activity, inhibitor; 10 µM).
CCn1cc(C(=O)O)c(=O)c2c(N)c(F)c(NC3CCCCC3)cc21 gave an inhibition of -2.3% (kinase activity; 0.1 µM, with: ATP at Km).
C=C1CCCCCCCCCC(CO)C1=O (centres unmarked) gave a remaining binding of 69% (cell-free assay, competition with immobilised ligand; 10 µM).
O=C=[N][Ru-4]123([n]4c5ccc(O)cc5c5c6c(c7cc(F)c[n+]1c7c54)C(=O)NC6=O)[S+]1CC[S+]2CC[S+]3CC1 (centres unmarked) has a remaining activity of 98% (enzyme activity; 100 nM, human enzyme, with: 10 µM ATP; baseline: untreated).
The inhibition of Cc1cccc(O[C@H]2CCC[C@@H](C(C)CNCc3ccncc3)C2)c1 (relative stereo) is reported as -4% (enzyme activity, inhibitor; 10 µM).
C=CC(=O)Nc1cc(-c2nn(C3CCN(CCNC(=O)[C@H](C)CCC45CC6CC(CC(C6)C4)C5)CC3)c3ncnc(N)c23)ccc1Oc1ccccc1 gave an inhibition of 3.6% (inhibitor, KiNativ profiling; biochemical; 2 µM).

Some of these lines once more:
CCn1cc(C(=O)O)c(=O)c2c(N)c(F)c(NC3CCCCC3)cc21 gave an inhibition of -2.3% (kinase activity; 0.1 µM, with: ATP at Km).
Under “activity vs control”, O=C(Cc1ccc(OCc2ccccc2)cc1)NC1(C(=O)O)CCN(C(=O)c2ccc(-c3cccc(Cl)c3)cc2)CC1 is recorded as 98% (enzyme activity, inhibitor; 10 µM).
C=CC(=O)Nc1cccc(-c2cnc3[nH]cc(C(=O)NC(C)(C)C)c3n2)c1 has an inhibition of 2% (enzyme activity, inhibitor; 0.1 µM).
